Published values gathered from unrelated publications.
Numbered parts are unrelated; each lists some results of a single study. Changes are numbered by the printed parent chain.

Series 1
Target: Interferon regulatory factor 7, full length, phosphomimetic (IRF7, Homo sapiens, UniProt Q92985, residues 1-503, S101K/S471D/S472D/S475D/S476D/S477D/S483D/S484D/S487D)
Technique: protein-binding microarray
Form: double-stranded DNA, one strand shown
Sample: in vitro
Concentration: 250 nM
Notes: 60-bp whole probe
With: salmon DNA 0.4 mg/ml
Reference: random background probes
Direction: higher = stronger binding
All sequences stand within: GCCTAGCAC … GTCTTGATTCGCTTGACGCTGCTG
Residues (chain): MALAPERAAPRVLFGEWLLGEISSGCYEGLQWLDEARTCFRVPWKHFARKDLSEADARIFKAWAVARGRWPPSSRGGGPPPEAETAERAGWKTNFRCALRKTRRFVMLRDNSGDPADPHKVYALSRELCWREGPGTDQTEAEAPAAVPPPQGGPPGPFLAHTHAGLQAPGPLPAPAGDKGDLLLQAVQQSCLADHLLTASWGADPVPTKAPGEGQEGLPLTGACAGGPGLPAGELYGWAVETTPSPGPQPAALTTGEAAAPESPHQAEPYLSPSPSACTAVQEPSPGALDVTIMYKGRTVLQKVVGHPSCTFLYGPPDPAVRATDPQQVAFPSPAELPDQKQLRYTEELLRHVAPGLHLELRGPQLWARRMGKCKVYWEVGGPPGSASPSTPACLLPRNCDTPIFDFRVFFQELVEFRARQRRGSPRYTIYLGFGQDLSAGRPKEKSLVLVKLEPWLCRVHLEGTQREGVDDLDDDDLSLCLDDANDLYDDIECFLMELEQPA
| Strand | log fluorescence |
| --- | --- |
| TCAACTTTCCACTTGTCACTGTGCTAG | 1.61 z-score |
| GACGGTTCCCATTTCCTGACGTGCTAG | 2.91 z-score |
| GACGGACTGGGTTTCGGGTCGTGCTAG | 5.18 z-score |
| CTCTGGGGCTCCAGGGAGAAGTGCTAG | -1.15 z-score |
| GCACTGTGCCTGCTGCCCTTGTGCTAG | -0.702 z-score |
| TCAGCATTCGAATTCAGACTGTGCTAG | -0.178 z-score |
| TTAGGTTGCGGTTCCGGTTAGTGCTAG | 2.35 z-score |
| TTAGGACTGGGGTTACGGTTAGTGCTA | -0.266 z-score |
| GACGGACTGGGTCTAGGGACGTGCTAG | -0.577 z-score |
| TTAGGTTTCGGGAGTGGGTTAGTGCTA | 1.89 z-score |
| GACGATATCGGGACTGGCGACGTGCTA | -0.354 z-score |
| CTCTGCTTCTGTATGGGCATGTGCTAG | 0.154 z-score |
| GACGGACAGGACTATCGGGACGTGCTA | -0.747 z-score |
| GACGAAATGGGGTTTCGAGACGTGCTA | 2.5 z-score |
| GACGATTGCAGTTCCGAGACGTGCTAG | -0.248 z-score |
| GACGGTTTCGGACTGGGAACGTGCTAG | 4.52 z-score |
| TTAGGTATCGACTTTCGGTTGGTGCTA | 2.91 z-score |

Series 2
Target: ABI1, truncated, D143A, DHFR fusion (Arabidopsis thaliana)
Technique: DHFR PCA, deep sequencing
Sample: yeast
Notes: methotrexate growth selection, single substitutions
With: (+)-ABA 17 µM
Reference: wild-type fitted maximum
Direction: higher = stronger binding
Starting sequence: PYL1, truncated, DHFR fusion (Arabidopsis thaliana); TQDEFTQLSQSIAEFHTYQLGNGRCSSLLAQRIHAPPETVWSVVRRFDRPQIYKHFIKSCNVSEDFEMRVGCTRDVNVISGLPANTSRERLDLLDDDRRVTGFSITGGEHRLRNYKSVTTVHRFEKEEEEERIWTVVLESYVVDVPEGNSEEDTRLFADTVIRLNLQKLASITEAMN; partner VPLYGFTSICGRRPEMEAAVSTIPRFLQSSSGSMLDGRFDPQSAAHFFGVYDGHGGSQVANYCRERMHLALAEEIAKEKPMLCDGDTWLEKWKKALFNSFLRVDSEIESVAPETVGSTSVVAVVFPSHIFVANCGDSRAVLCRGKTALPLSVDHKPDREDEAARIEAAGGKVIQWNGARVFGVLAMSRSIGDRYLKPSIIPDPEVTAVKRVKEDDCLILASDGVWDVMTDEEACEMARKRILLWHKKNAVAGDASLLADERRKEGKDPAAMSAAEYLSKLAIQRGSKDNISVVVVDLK
| Change | relative binding score |
| --- | --- |
| W134L | 93.3% |
| T135S | 90.7% |
| E89M | 5.46% |
| E14L | 58.6% |
| T39Q | 77.1% |
| H110K | 1.02% |
| E152D | 81.9% |
| R74W | -12.3% |
| S150V | 38.4% |
| P146E | 0.912% |
| V118I | 84% |
| L82P | 33.2% |
| Q51A | 31.7% |
| D92K | -23.1% |
| A13W | 56.8% |
| R132C | 97% |

Series 3
Target: Histone acetyltransferase KAT6A, both winged helices, GST fusion (KAT6A, Homo sapiens, UniProt Q92794, residues 1-181)
Technique: protein binding microarray
Form: double-stranded DNA, one strand shown
Sample: in vitro
Concentration: not given
Notes: 8-mer, flanks averaged, mean of 2 arrays, mostly near background
Reference: not given
Direction: higher = stronger binding
Construct (chain): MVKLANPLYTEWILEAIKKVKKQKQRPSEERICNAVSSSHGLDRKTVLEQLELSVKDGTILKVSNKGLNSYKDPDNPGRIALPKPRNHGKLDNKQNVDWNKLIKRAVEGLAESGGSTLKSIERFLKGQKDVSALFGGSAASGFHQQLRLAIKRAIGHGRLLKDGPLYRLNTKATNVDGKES
| Strand | E-score |
| --- | --- |
| TCAGCGAA | -0.0191 |
| AGTCGCGC | 0.241 |
| CAACAGCC | 0.0442 |
| CTTTTTGA | -0.132 |
| CAATTCCG | 0.231 |
| AGCCTATC | -0.0646 |
| AGATATCA | -0.0271 |
| GCAGTGGA | 0.00539 |
| ATGCATGC | 0.0109 |
| CTTTCACC | 0.0266 |
| AGTGATCC | -0.0459 |
| CGTGGACC | 0.181 |
| CCATTAGC | -0.0382 |
| AGGAAACC | 0.0663 |
| CCTCATGA | -0.103 |
| AAGGGTTC | -0.139 |
| AATCGAAC | -0.0428 |
| ACCAGACA | -0.216 |
| AAGATATC | -0.115 |
| CCATTCAG | -0.129 |
| ACGTTCAA | 0.0774 |
| AGCTCCCG | 0.0951 |
| AAAGCCCT | -0.258 |
| GTCTATGA | -0.0911 |
| GGCATCGA | 0.00598 |

Series 4
Target: Prothrombin, mature alpha-thrombin (F2, Homo sapiens, UniProt P00734)
Technique: aptamer microarray, sandwich
Form: DNA with 2'F-ANA
Sample: in vitro
Concentration: 200 nM
Notes: whole 15-mer aptamer, many near background
With: Cy3 exosite-II aptamer, 400 nM
Direction: higher = stronger binding
Strand: GGTTGGTGTGGTTGG
| Modification | mean fluorescence intensity [a.u.] |
| --- | --- |
| 2'F-ANA at 1 4 5 10 14 15 | 51.8 |
| 2'F-ANA at 1 2 3 4 5 6 8 9 10 15 | 49.7 |
| 2'F-ANA at 1 2 4 5 6 7 12 | 123 |
| 2'F-ANA at 1 2 3 6 7 8 13 | 164 |
| 2'F-ANA at 2 3 5 7 14 | 53.2 |
| 2'F-ANA at 3 4 6 11 14 | 477 |
| 2'F-ANA at 1 2 7 8 10 11 12 13 14 | 45.9 |
| 2'F-ANA at 1 8 9 10 13 14 | 49.2 |
| 2'F-ANA at 2 4 6 7 10 11 13 | 67.5 |
| 2'F-ANA at 1 2 3 4 6 10 11 15 | 58.2 |
| 2'F-ANA at 1 3 4 7 8 9 10 11 | 78.9 |
| 2'F-ANA at 1 3 5 6 7 9 10 14 | 45.6 |
| 2'F-ANA at 1 2 3 7 8 9 10 14 | 56.9 |
| 2'F-ANA at 1 2 5 11 13 15 | 58.4 |
| 2'F-ANA at 2 4 9 11 12 14 15 | 102 |
| 2'F-ANA at 1 2 6 8 9 11 12 15 | 251 |
| 2'F-ANA at 2 4 5 8 9 13 14 15 | 56.7 |
| 2'F-ANA at 4 5 7 13 | 66.3 |

Series 5
Target: POU, POU domain (Salpingoeca helianthica)
Technique: Spec-seq
Form: double-stranded DNA, one strand shown
Sample: in vitro
Concentration: not given
Notes: whole probe, mean of replicates
Reference: not given
Direction: lower = stronger binding
All sequences stand within: GAGTCGTCTCGTCAGCAC … CCGTAGAGCACTCAGGTC
Residues (chain): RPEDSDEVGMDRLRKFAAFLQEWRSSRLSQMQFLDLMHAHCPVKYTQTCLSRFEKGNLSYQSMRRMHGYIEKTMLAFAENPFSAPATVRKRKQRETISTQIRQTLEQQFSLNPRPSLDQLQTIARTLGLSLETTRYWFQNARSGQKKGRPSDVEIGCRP
| Strand | relative binding energy [ln ratio] |
| --- | --- |
| ATACCAAT | 1.11 |
| GACCTAAT | 0.781 |
| ATCCTAAT | 0.743 |
| ATAATCAT | -0.0241 |
| ACTGTAAT | 0.584 |
| ATTACTAT | 0.455 |
| ATGCATCG | 1.02 |
| GGGATAAT | 0.402 |
| ATGCGTGT | 1.44 |
| GAGTTAAT | -0.557 |
| ATGGGTAT | 1.13 |
| ATAGTCAT | 0.942 |
| ATGCTTCC | 0.902 |
| ATAGCGAT | 1.22 |
| ATTGAAAT | 1.07 |
| CGTGTAAT | 0.449 |
| CCCTTAAT | 0.547 |
| ATTTAAAT | -0.221 |
| ATTCCGAT | 1.19 |
| CCAATAAT | 0.128 |
| ATTTGAAT | 0.664 |
| ATGCTTTA | 0.872 |
